Measured values gathered from unrelated publications.
Each line is one published result; not all experiments were run side by side.
SLC6A4: Sodium-dependent serotonin transporter (SLC6A4, Homo sapiens, UniProt P31645)
Chain of UniProt P31645 (whole entry, unmodified, looked up): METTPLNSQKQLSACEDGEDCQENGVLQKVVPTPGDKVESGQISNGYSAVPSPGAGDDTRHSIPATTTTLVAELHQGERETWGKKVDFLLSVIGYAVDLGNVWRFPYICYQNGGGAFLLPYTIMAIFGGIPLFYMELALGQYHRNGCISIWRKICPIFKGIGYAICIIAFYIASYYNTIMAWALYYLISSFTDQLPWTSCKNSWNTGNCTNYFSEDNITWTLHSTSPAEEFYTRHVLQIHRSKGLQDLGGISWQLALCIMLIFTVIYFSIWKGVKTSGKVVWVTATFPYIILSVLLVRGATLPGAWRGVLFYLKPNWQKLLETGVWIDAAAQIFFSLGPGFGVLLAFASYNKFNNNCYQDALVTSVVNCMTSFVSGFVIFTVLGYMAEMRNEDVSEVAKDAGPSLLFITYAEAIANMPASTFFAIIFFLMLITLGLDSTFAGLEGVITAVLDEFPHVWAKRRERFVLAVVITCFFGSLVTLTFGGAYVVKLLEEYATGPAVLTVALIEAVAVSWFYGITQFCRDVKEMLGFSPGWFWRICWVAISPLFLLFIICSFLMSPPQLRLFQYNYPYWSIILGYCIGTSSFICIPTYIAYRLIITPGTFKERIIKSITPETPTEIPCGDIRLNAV

| Compound | target | assay | test system | setting | measurement | result |
| --- | --- | --- | --- | --- | --- | --- |
| CCN(CC)C(=O)[C@@H]1C=C2c3cccc4[nH]cc(c34)C[C@H]2N(C)C1 | SLC6A4 | transporter uptake, inhibitor, radiometric | – | – | IC50 | > 10000 nM |
| CCCNC(C)C(=O)c1ccc2c(c1)OCO2 (stereo not drawn) | SLC6A4 | transporter uptake, inhibitor, radiometric | – | – | IC50 | 2250 nM |
| CCCN1[C@@H](C)[C@H](c2cccc(Cl)c2)OCC1(C)C | SLC6A4 | transporter uptake, inhibitor, radiometric | – | – | IC50 | 2900 nM |
| CCNC(C)C(=O)c1ccc(Cl)cc1 (stereo not drawn) | SLC6A4 | [3H]5-HT release, releaser | HEK293 expressing target | – | EC50 | 780 nM |
| CC[C@@H]1NC(C)(C)CO[C@H]1c1cccc(Cl)c1 | SLC6A4 | transporter uptake, inhibitor, radiometric | – | – | IC50 | 1800 nM |
| C=C[C@H]1C[N@@]2CC[C@H]1C[C@@H]2[C@@H](O)c1ccnc2ccccc12 | SLC6A4 (Homo sapiens, UniProt P31645, Y95F) | transporter uptake, inhibitor, radiometric | – | – | Ki | 300 nM |
| CN1[C@H]2CC[C@@H]1[C@@H](C(=O)N1CCCC1)[C@@H](c1ccc(I)cc1)C2 | SLC6A4 | serotonin reuptake, inhibitor | HEK293 transfected with SERT | – | IC50 | > 10000 nM |
| CC(N)Cc1cccc(C(F)(F)F)c1 (single isomer, unassigned; (+)) | SLC6A4 | induced current, oocyte voltage clamp | – | holding potential -60 mV | EC50 | ~10000 nM |
| CNC(C)C(=O)c1ccccc1 (stereo not drawn) | SLC6A4 | transporter uptake, inhibitor, radiometric | – | – | IC50 | 29400 nM |
| C[C@@H]1NC(C)(C)CO[C@H]1c1cccc(F)c1 | SLC6A4 | transporter uptake, inhibitor, radiometric | – | – | IC50 | 4600 nM |
| CCCC(C(=O)c1ccc2c(c1)OCO2)N1CCCC1 (stereo not drawn) | SLC6A4 | ligand displacement, radioligand | – | cell membranes | Ki | 1250 nM |
| CC(C(=O)c1ccc2c(c1)OCO2)N(C)C (stereo not drawn) | SLC6A4 | transporter uptake, inhibitor, radiometric | – | – | IC50 | > 9200 nM |

Excerpt of the above:
| Compound | target | assay | test system | setting | measurement | result |
| --- | --- | --- | --- | --- | --- | --- |
| CN1[C@H]2CC[C@@H]1[C@@H](C(=O)N1CCCC1)[C@@H](c1ccc(I)cc1)C2 | SLC6A4 | serotonin reuptake, inhibitor | HEK293 transfected with SERT | – | IC50 | > 10000 nM |
